Experimental data from different studies.
Protocols differ between the studies behind these lines. ± gives the spread as reported.
Sequence of UniProt P50750 (whole entry, unmodified, looked up): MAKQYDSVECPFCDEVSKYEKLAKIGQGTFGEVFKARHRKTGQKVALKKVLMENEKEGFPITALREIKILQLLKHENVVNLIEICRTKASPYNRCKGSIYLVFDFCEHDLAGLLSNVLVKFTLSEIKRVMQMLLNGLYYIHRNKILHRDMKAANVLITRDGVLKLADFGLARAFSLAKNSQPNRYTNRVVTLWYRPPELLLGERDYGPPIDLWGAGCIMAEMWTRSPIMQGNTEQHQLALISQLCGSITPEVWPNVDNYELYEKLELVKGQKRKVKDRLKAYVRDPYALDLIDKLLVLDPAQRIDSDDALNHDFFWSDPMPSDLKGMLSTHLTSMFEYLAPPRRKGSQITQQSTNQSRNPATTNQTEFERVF
Sequence of UniProt P05067 (whole entry, looked up): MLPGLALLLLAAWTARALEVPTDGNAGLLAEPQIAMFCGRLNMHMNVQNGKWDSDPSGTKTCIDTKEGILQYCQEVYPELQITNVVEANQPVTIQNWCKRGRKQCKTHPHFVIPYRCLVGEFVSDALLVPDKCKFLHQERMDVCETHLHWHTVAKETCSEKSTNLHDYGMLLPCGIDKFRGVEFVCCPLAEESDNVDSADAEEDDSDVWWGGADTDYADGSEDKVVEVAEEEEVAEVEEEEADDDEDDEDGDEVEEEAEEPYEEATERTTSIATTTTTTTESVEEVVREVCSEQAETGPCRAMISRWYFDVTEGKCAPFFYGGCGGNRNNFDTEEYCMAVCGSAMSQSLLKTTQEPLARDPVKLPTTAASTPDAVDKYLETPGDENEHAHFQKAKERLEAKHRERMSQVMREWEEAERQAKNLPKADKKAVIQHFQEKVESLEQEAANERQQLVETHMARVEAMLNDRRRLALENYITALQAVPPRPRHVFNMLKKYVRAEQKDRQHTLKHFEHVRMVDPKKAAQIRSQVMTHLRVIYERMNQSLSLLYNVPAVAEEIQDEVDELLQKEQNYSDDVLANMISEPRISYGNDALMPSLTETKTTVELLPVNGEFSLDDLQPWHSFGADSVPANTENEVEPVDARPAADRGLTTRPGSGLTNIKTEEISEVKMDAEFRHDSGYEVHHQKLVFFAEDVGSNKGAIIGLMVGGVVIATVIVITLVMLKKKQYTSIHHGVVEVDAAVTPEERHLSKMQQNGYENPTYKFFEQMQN
Sequence of UniProt P01024 (whole entry, looked up): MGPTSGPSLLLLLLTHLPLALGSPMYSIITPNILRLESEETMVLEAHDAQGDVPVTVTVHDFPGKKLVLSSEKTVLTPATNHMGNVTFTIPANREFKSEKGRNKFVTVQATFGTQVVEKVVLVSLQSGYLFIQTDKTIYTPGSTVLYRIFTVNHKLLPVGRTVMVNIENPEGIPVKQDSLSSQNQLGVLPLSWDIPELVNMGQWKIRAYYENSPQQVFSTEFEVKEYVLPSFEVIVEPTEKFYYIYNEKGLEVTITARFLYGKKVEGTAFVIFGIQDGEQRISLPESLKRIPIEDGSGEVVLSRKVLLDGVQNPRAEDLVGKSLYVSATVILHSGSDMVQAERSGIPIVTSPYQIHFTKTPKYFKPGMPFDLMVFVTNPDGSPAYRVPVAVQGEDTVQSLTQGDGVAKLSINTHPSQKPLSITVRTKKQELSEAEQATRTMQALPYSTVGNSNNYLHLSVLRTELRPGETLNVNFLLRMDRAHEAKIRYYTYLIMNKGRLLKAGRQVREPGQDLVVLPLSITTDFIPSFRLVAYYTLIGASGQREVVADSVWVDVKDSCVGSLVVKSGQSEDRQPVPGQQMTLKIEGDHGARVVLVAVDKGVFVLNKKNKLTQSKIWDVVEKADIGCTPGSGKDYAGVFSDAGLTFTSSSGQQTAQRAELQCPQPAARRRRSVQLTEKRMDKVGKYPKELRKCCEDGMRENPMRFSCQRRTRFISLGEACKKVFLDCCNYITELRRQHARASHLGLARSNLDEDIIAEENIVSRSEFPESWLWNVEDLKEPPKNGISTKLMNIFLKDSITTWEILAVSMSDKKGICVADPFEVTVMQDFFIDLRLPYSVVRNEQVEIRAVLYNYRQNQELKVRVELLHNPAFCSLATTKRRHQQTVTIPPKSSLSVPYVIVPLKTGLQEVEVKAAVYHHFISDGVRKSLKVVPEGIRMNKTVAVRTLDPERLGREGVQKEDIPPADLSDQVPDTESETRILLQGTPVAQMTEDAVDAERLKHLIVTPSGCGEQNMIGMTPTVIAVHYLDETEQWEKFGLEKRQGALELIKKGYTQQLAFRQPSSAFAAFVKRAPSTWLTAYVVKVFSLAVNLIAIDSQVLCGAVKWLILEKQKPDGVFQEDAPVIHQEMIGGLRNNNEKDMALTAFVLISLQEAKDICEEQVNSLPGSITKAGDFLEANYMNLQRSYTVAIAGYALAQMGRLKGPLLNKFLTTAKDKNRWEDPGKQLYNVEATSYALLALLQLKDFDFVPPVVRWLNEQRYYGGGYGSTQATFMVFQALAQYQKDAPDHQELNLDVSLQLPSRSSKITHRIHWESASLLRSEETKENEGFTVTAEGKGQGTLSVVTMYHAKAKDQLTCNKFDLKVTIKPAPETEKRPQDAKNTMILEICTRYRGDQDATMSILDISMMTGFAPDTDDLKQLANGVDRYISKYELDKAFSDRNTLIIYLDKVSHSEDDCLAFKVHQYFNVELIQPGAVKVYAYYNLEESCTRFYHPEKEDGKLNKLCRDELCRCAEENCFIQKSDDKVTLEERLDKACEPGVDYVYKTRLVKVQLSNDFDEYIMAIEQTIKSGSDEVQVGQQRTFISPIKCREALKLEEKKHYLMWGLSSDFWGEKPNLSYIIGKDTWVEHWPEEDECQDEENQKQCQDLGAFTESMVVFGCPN
Sequence of UniProt P21397 (whole entry, looked up): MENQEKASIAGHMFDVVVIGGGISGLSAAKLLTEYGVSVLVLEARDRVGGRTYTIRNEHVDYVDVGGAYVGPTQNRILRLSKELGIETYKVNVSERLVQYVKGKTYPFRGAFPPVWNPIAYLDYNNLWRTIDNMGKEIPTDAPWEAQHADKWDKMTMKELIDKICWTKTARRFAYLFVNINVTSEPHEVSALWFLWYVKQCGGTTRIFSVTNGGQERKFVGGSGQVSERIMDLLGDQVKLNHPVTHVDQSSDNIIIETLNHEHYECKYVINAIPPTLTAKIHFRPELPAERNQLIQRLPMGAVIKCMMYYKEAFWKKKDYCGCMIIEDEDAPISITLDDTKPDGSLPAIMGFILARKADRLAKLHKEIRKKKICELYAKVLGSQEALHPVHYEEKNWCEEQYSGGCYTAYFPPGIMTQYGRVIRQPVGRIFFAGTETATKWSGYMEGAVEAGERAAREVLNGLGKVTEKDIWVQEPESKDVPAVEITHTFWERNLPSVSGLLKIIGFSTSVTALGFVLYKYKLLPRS
Sequence of UniProt Q9Y294 (whole entry, looked up): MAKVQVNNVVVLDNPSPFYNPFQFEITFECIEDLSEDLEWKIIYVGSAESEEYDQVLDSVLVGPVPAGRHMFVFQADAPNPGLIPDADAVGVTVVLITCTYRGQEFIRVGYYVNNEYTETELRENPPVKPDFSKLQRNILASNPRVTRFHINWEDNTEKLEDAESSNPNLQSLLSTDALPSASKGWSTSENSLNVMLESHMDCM
Sequence of UniProt P06186 (whole entry, looked up): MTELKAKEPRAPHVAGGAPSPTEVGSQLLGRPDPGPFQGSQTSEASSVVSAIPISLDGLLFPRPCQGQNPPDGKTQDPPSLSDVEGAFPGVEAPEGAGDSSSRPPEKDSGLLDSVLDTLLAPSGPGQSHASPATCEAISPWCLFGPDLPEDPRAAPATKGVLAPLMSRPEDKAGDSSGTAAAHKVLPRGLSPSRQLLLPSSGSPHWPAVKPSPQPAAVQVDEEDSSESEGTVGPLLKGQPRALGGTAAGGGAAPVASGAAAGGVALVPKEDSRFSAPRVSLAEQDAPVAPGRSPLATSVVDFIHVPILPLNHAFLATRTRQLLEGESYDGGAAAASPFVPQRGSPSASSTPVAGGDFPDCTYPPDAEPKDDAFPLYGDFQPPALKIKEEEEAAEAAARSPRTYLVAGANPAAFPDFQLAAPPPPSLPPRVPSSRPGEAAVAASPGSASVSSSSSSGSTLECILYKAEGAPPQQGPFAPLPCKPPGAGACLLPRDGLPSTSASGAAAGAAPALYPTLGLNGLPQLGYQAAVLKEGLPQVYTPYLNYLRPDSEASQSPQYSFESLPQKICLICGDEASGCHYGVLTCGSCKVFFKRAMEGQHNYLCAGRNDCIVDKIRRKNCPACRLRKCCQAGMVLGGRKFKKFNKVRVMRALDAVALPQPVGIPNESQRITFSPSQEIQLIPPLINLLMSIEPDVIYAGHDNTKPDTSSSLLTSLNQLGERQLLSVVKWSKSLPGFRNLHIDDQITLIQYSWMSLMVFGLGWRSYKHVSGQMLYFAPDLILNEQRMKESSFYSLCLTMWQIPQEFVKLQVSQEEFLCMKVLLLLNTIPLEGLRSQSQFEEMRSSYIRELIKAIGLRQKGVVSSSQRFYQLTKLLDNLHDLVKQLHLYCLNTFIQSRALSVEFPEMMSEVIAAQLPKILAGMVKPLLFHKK
Sequence of UniProt P40337 (whole entry, unmodified, looked up): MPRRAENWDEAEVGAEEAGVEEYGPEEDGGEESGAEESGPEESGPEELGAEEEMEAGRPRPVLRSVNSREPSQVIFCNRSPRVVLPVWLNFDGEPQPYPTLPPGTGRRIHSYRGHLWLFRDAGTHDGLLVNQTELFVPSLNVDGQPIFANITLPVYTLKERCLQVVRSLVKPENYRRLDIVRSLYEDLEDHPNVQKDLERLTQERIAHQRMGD

O=C1c2ccc(O)cc2OC(c2ccc(O)cc2)C1C1C(=O)c2ccc(O)cc2OC1c1ccc(O)cc1 (centres unmarked)  Hill coefficient (laccase (Trametes versicolor); substrate, Hill kinetic model; product formation): 1.42
Cc1ccc(-c2c(/C=C(\C#N)C(=O)NC(C)C)n(CCCO)c3ncnc(N)c23)cc1  absorption peak change (Ribosomal protein S6 kinase alpha-3, C-terminal kinase domain (Rps6ka3, Mus musculus, UniProt P18654, C436V); covalent bond formation, UV-visible spectroscopy; 25 or 300 µM): no effect
CCCCCC(O)/C=C/C=O (centres unmarked)  kinase activity (MAP3K20 (Homo sapiens, UniProt Q9NYL2); inhibitor; 10 or 100 µM, with: myelin basic protein): inhibited
CC[C@H](C)[C@H](NC(=O)[C@@H]1CSSC[C@H](NC(=O)[C@@H](NC(C)=O)[C@@H](C)CC)C(=O)N[C@@H](C(C)C)C(=O)N[C@@H](Cc2cn(C)c3ccccc23)C(=O)N[C@@H](CCC(N)=O)C(=O)N[C@@H](CC(=O)O)C(=O)N[C@@H](Cc2c[nH]c3ccccc23)C(=O)NCC(=O)N[C@@H](C)C(=O)N[C@@H](Cc2c[nH]cn2)C(=O)N[C@@H](CCCNC(=N)N)C(=O)N1)C(N)=O  relative KD (Complement C3, C3b fragment (Homo sapiens, UniProt P01024); SPR; 25 °C; baseline: [Trp(Me)4]-Ac-compstatin): 1.1
Cc1ncsc1-c1ccc(CNC(=O)[C@@H]2C[C@@H](O)CN2C(=O)[C@@H](NC(=O)COCCOCCOCCNC(=O)C[C@@H]2N=C(c3ccc(Cl)cc3)c3c(sc(C)c3C)-n3c(C)nnc32)C(C)(C)C)cc1  ΔG (BRD2/VHL, BD1; with VCB (Homo sapiens, UniProt P25440+P40337); ITC; Brd2^BD1, ternary): -20.3 ± 0.2 kcal/mol
COc1ccc2c(c1)/C(=N/N=C/c1cccc(OCc3ccccc3)c1)C(=O)N2  remaining activity (MAOA (Homo sapiens, UniProt P21397); enzyme activity, inhibitor; 10 µM): 58.7%
CCN(CC)c1ccc(C=C(C#N)C(=O)OCCOCCOCCOC)cc1  excitation maximum (Amyloid-beta precursor protein, Aβ42 aggregates (APP, Homo sapiens, UniProt P05067); binding, fluorescence spectroscopy; PBS; 4 µM, with: pre-aggregated Aβ(1-42) 5 µM): 442 nm
C[C@]12C[C@H](c3ccc(-c4ccc(C(=O)O)cc4)cc3)C3=C4CCC(=O)C=C4CC[C@H]3[C@@H]1CC[C@@]2(O)C(F)(F)C(F)(F)F  full efficacy dose (Progesterone receptor (Oryctolagus cuniculus, UniProt P06186); endometrial transformation, McPhail test; rabbit; oral, with: progesterone): 1 mg/kg
COCCOCCOc1cc(-c2cn([C@H]3[C@H](O)[C@@H](O)[C@H](n4cc(-c5ccc(O[C@@H]6O[C@H](CO)[C@H](O)[C@H](O)[C@H]6O)cc5)nn4)O[C@@H]3CO)nn2)c(OCCOCCOC)cc1-c1cn([C@H]2[C@H](O)[C@@H](O)[C@H](n3cc(-c4ccc(O[C@@H]5O[C@H](CO)[C@H](O)[C@H](O)[C@H]5O)cc4)nn3)O[C@@H]2CO)nn1  ΔG (lecA (Pseudomonas aeruginosa, UniProt Q05097); ITC; 5% DMSO): -9.9 ± 0.2 kcal/mol
Clc1ccc2ccc3[n+](c2c1)[Ir-3]12([c]4ccccc4-3)([c]3ccccc3-c3ccc4ccc(Cl)cc4[n+]31)[n+]1ccccc1-c1cccc[n+]12.F[P-](F)(F)(F)(F)F  −TΔS (CDK9 (Homo sapiens, UniProt P50750); isothermal titration calorimetry; 25 °C): 13.8 kcal/mol
CC[C@H](C)[C@H](NC(=O)[C@H](CCCNC(=N)N)NC(=O)NC[C@H](CCC(N)=O)NC(=O)NC[C@H](CC(C)C)NC(=O)NC[C@H](CCCNC(=N)N)NC(=O)NC[C@H](Cc1c[nH]c2ccccc12)NC(=O)[C@H](CCCCN)NC(=O)[C@H](CCC(=O)O)NC(C)=O)C(=O)N[C@@H](C)C(N)=O  binding stoichiometry (Histone chaperone ASF1A (Homo sapiens, UniProt Q9Y294); isothermal titration calorimetry; concentration not given, pH 7.5, 20 °C): 1.2 ± 0.2
